Measurements from different studies.
Compare with care: the assays were run in different laboratories. ± marks the error that the study gave.
Chain of UniProt Q14160 (whole entry, looked up): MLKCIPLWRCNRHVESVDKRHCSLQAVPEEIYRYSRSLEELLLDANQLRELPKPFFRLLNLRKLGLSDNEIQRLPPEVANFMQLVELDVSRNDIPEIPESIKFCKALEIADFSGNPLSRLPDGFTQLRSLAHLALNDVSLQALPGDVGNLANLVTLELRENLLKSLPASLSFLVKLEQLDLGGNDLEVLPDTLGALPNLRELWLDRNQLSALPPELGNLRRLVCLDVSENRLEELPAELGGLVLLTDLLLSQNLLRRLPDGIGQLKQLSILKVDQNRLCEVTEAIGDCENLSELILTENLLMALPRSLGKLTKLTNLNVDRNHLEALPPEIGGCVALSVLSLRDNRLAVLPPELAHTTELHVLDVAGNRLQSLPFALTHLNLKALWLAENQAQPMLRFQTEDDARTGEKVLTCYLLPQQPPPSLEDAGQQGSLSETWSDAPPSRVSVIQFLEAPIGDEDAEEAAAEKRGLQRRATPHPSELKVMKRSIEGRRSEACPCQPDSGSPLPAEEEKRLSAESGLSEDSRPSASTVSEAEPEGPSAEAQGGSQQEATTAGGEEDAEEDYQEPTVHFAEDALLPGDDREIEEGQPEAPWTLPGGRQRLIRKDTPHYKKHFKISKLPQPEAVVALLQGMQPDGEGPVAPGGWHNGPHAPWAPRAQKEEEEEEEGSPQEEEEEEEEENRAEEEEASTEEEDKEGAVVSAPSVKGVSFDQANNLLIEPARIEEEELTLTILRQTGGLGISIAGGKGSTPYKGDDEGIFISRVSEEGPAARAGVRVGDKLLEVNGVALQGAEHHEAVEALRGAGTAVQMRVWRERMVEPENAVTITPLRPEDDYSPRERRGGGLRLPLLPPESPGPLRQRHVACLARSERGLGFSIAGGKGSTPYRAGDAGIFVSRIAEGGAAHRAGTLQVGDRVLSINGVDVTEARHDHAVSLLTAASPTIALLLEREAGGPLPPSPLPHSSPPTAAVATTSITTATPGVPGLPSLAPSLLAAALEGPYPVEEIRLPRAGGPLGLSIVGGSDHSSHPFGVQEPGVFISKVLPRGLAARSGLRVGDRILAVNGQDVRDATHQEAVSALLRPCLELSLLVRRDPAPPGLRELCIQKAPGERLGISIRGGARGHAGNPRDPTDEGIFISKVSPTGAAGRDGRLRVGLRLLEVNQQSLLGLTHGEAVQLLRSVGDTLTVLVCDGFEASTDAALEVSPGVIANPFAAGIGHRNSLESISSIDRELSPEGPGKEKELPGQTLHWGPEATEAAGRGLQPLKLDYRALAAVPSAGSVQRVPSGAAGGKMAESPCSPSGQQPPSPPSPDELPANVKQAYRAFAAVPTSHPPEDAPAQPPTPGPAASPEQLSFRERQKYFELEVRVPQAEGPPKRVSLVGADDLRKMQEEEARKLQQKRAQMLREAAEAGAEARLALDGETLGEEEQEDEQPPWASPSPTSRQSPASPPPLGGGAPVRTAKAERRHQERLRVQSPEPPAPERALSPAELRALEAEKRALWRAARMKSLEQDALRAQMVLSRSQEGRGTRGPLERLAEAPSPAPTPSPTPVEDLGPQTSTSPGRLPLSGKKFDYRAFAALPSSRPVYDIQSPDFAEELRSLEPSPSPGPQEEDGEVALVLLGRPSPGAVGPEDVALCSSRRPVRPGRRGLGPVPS

| Structure (SMILES) | target or system | test | system | setting | scale | quantity | value |
| --- | --- | --- | --- | --- | --- | --- | --- |
| CSCC[C@H](NC(=O)[C@H](CC(C)C)NC(=O)[C@@H](NC(=O)[C@H](C)NC(=O)[C@H](CCSC)NC(=O)[C@H](CCCCN)NC(=O)[C@H](CC(N)=O)NC(=O)[C@@H]1CCCN1C(=O)[C@H](CC(N)=O)NC(=O)[C@@H](N)CC(C)C)[C@@H](C)O)C(=O)O | Protein scribble homolog, PDZ3 domain (SCRIB, Homo sapiens, UniProt Q14160) | binding, fluorescence polarization | solution | Scribble PDZ3 domain | – | Kd | 59.5 µM |
| COc1cc2c(c(OC)c1OC)-c1ccc(OC)c(=O)cc1[C@@H](NC(C)=O)CC2 | HepG2 spheroids | flow cytometry, refers to: phospho-histone H3 | – | 0.1 µM, 24 h | relative to: solvent control | mitotic cells | 22.9 fold |
| Fc1ccc([C@@H]2CCNC[C@H]2COc2ccc3c(c2)OCO3)cc1 | African green monkey cells | – | – | 5 days | – | CC50 | 16.6 µM |
| CC(C)(O)c1ccc(OCCc2cccc(F)c2)c(C(N)=O)c1 | HepG2 | – | – | 3 (unit not given) | relative to: CC50 glucose over CC50 galactose | selectivity ratio | < 1 |
| CN(CC[C@H](Oc1cccc2ccccc12)c1cccs1)N=O | TK6 expressing CYP2C19 | – | – | 0.5 µM, 4 h, without S9 | relative to: vehicle | relative survival | 78.2% |
| COc1cc2c3cc1Oc1c(OC)c(OC)cc4c1[C@@H](Cc1ccc(O)c(c1)Oc1ccc(cc1)C[C@@H]3N(C)CC2)N(C)CC4 | African green monkey cells | – | – | 5 days | – | CC50 | 10.2 µM |
| Nc1ncnc2c1ncn2[C@@H]1O[C@@H]2COP(=O)(O)O[C@H]3[C@@H](O)[C@H](n4cnc5c(N)ncnc54)O[C@@H]3COP(=O)(O)O[C@H]2[C@H]1O | HFF-1 | – | – | 100 µg/mL | – | viability | 90.5% |
| CC(C)(c1ccc(O)cc1)c1ccc(O)cc1 | HepG2 spheroids | annexin V-FITC/PI flow cytometry | – | 10 µM, 96 h | – | necrotic cells | 30.6 ± 4.97% |
| CSc1ccc2c(c1)N(CCC1CCCCN1C)c1ccccc1S2 (stereo not drawn) | African green monkey cells | – | – | 5 days | – | CC50 | 6.38 µM |
| CC[C@H](C)[C@H](NC(=O)[C@H](C)NC(=O)[C@H](CCCCN)NC(=O)[C@H](CC(N)=O)NC(=O)[C@@H](NC(=O)[C@H](CCCCN)NC(=O)[C@H](CCCCN)NC(=O)[C@H](CC(C)C)NC(=O)[C@@H](NC(=O)[C@H](CCCCN)NC(=O)CNC(=O)[C@@H](NC(=O)CNC(=O)[C@H](CC(N)=O)NC(=O)[C@@H](NC(=O)CNC(=O)[C@H](Cc1ccc(O)cc1)NC(=O)[C@H](CCCNC(=N)N)NC(=O)[C@H](CCSC)NC(=O)[C@@H](NC(=O)[C@H](CCSC)NC(=O)[C@H](C)NC(=O)[C@H](CC(C)C)NC(=O)[C@H](CCC(N)=O)NC(=O)[C@H](CCCCN)NC(=O)[C@H](CCCCN)NC(=O)[C@@H](NC(=O)[C@@H](N)CCCNC(=N)N)[C@@H](C)O)C(C)C)C(C)C)C(C)C)[C@@H](C)CC)[C@@H](C)CC)C(=O)N[C@H](C(=O)N[C@@H](CO)C(=O)N[C@@H](CCCCN)C(=O)N[C@@H](CCCCN)C(=O)N[C@@H](CC(N)=O)C(=O)N[C@@H](CCCCN)C(=O)O)C(C)C | human red blood cells | hemolysis | – | – | – | HC50 | 193 µmol/L |
| CC(=O)N1CCN([C@H]2CCN(C(=O)N(C)[C@H](C)c3cc(C(F)(F)F)cc(C(F)(F)F)c3)[C@@H](c3ccc(F)cc3C)C2)CC1 | African green monkey cells | – | – | 5 days | – | CC50 | 17.8 µM |
| c1cc2ccc3cccc4ccc(c1)c2c34 | rat hepatoma cells | cell confluency, IncuCyte imaging | – | 24 h, nominal concentration | – | IC10 | 64.4 µM |
| Nc1nc2c(ncn2[C@@H]2O[C@@H]3COP(=O)(O)O[C@H]4[C@@H](O)[C@H](n5cnc6c(N)ncnc65)O[C@@H]4COP(=O)(O)O[C@H]3[C@H]2O)c(=O)[nH]1 | HFF-1 | – | – | 0.1 µg/mL | – | viability | 96.4% |
| CCCCc1oc2ccc(NS(C)(=O)=O)cc2c1C(=O)c1ccc(OCCCN(CCCC)CCCC)cc1 | African green monkey cells | – | – | 5 days | – | CC50 | 3.85 µM |
| Cc1cscc1-c1ccc(OCCc2cccc(F)c2)c(C(N)=O)c1 | HepG2 | – | – | 3 (unit not given) | relative to: CC50 glucose over CC50 galactose | selectivity ratio | 1 |
| CCCCCCCCCCCC(=O)N[C@H](CCC(=O)NC(CCCC(N)C(=O)O)C(=O)O)C(=O)O (stereo partly drawn) | HFF-1 | – | – | 0.1 µg/mL | – | viability | 94.8% |
| N#C[C@@]1(n2ccc(N)nc2=O)O[C@H](CO)[C@@H](O)[C@H]1O | CHO | – | – | 16 µM, without S9 | – | micronucleated cells | 0.19% |
| Nc1ccc([N+](=O)[O-])cc1 | MDA-kb2 | cytotoxicity | – | – | – | AC50 | 107 µM |
| CC(C)Cn1cnc2c(N)nc3ccccc3c21 | HFF-1 | – | – | 1 µg/mL, 48 h | – | viability | 82.3% |
| COc1ccc(CCOc2ccc(-c3ccsc3)cc2C(N)=O)cc1F | HepG2 | – | – | 3 (unit not given) | relative to: CC50 glucose over CC50 galactose | selectivity ratio | 1 |

| Structure (SMILES) | target or system | test | system | setting | scale | quantity | value |
| --- | --- | --- | --- | --- | --- | --- | --- |
| CC(C)C[C@H](NC(=O)CN)C(=O)N[C@@H](CCCCN)C(=O)N[C@@H](CCCCN)C(=O)N[C@@H](CC(C)C)C(=O)N[C@@H](CC(C)C)C(=O)N[C@@H](CC(C)C)C(=O)N[C@@H](CC(C)C)C(=O)N[C@@H](CC(C)C)C(=O)N[C@@H](CCCCN)C(=O)N[C@@H](CCCCN)C(=O)N[C@@H](CC(C)C)C(=O)NCC(=O)O | HEK-293T cells | CCK-8 | – | 4 h, 37 °C, 10% cell death | – | lowest cytotoxic concentration | 64 µg/mL |
| CN(C(=O)n1cnc(-c2ccc[n+]([O-])c2)c1)C1CCCCC1 | COS-7 expressing human FAAH | – | culture supernatant | 100 nM, 24 h | – | concentration | 101 ± 1.1 nM |
| Cc1cc(C(C)(C)c2ccc(O)c(C)c2)ccc1O | HepG2 spheroids, dissociated | annexin V-FITC/PI flow cytometry | – | 10 µM, 96 h | – | early apoptotic cells | 8.28 ± 9.2% |
| CC(=O)N[C@@H](CCCCN)C(=O)N[C@@H](CCCCN)C(=O)N[C@@H](C)C(=O)N[C@@H](CC(C)C)C(=O)N[C@@H](CCCCN)C(=O)N[C@@H](CC(C)C)C(=O)N[C@@H](C)C(=O)N[C@@H](CCCCN)C(=O)N[C@@H](CCCCN)C(=O)N1CCC[C@H]1C(=O)N[C@@H](CC(C)C)C(=O)N[C@@H](CCCCN)C(=O)N[C@@H](CC(C)C)C(=O)N[C@@H](CC(C)C)C(=O)N[C@@H](CCCCN)C(N)=O | human red blood cells | haemolysis | – | 6 h, 37 °C, 5% haematocrit in PBS | – | MHC10 | > 160 µM |
| CC(C)(Cc1c[nH]c2ccccc12)NCC(O)COc1ccccc1C#N (stereo not drawn) | African green monkey cells | – | – | 5 days | – | CC50 | 30.9 µM |
| CC(C)C[C@H](NC(=O)[C@H](CCCCN)NC(=O)[C@H](CCCCN)NC(=O)[C@H](CC(C)C)NC(=O)[C@H](CC(C)C)NC(=O)[C@H](CC(C)C)NC(=O)[C@H](CC(C)C)NC(=O)[C@H](CC(C)C)NC(=O)[C@H](CCCCN)NC(=O)[C@H](CCCCN)NC(=O)[C@@H](N)CC(C)C)C(=O)NCC(=O)NCC(=O)NCC(=O)N[C@@H](Cc1c[nH]c2ccccc12)C(=O)N[C@@H](CCCCN)C(=O)N[C@H](C(=O)N[C@@H](CC(N)=O)C(=O)N[C@@H](CCCCN)C(=O)N[C@@H](Cc1ccc(O)cc1)C(=O)NCC(=O)N[C@H](C(=O)N[C@@H](CC(C)C)C(=O)N[C@@H](Cc1ccc(O)cc1)C(=O)O)[C@@H](C)O)[C@@H](C)O | HEK-293T cells | CCK-8 | – | 4 h, 37 °C, 10% cell death | – | lowest cytotoxic concentration | 64 µg/mL |
| O=S(=O)(c1ccc(O)cc1)c1ccc(O)cc1 | HepG2 spheroids, dissociated | annexin V-FITC/PI flow cytometry | – | 10 µM, 96 h | – | viable cells | 40.2 ± 13.7% |
| Nc1nc2c(ncn2[C@@H]2O[C@@H]3COP(=O)(O)O[C@H]4[C@@H](O)[C@H](n5cnc6c(N)ncnc65)O[C@@H]4COP(=O)(O)O[C@@H]2[C@@H]3O)c(=O)[nH]1 | HFF-1 | – | – | 10 µg/mL | – | viability | 100% |
| CC(C)C[C@H](NC(=O)CNC(=O)[C@H](CC(C)C)NC(=O)[C@H](CC(C)C)NC(=O)[C@H](CC(C)C)NC(=O)[C@H](CCCCN)NC(=O)[C@@H](N)CCCCN)C(=O)NCC(=O)N[C@@H](CC(C)C)C(=O)N[C@@H](CC(C)C)C(=O)N[C@@H](CC(C)C)C(=O)N[C@@H](CCCCN)C(=O)N[C@@H](CCCCN)C(=O)O | HEK-293T cells | CCK-8 | – | 4 h, 37 °C, 10% cell death | – | lowest cytotoxic concentration | 256 µg/mL |
| CNCc1ccc(C)c(NC(=O)c2ccc(Nc3nc(-c4ccccc4)c4ccccc4n3)cc2)c1 | African green monkey cells | – | – | 5 days | – | CC50 | 3.09 µM |
| COc1cc2c(Oc3ccc4[nH]c(C)cc4c3F)ccnc2cc1OCC1(N)CC1 | – | – | paediatric recurrent refractory sarcoma | 8 mg | – | grade 1 or 2 ALT elevation | 25% |
| CC(C)C[C@H](NC(=O)[C@H](CCCCN)NC(=O)[C@H](CC(C)C)NC(=O)[C@H](CC(C)C)NC(=O)CNC(=O)[C@H](CCCCN)NC(=O)[C@H](CC(C)C)NC(=O)[C@H](CCCCN)NC(=O)CNC(=O)[C@H](CC(C)C)NC(=O)[C@H](CC(C)C)NC(=O)[C@H](CCCCN)NC(=O)[C@@H](N)CC(C)C)C(=O)O | HEK-293T cells | CCK-8 | – | 4 h, 37 °C, 10% cell death | – | lowest cytotoxic concentration | > 256 µg/mL |
| CCNCc1nc2c(N)nc3ccccc3c2n1CC(C)(C)O | HFF-1 | – | – | 1 µg/mL, 48 h | – | viability | 85.3% |
| CC(=O)N[C@@H](CCCCN)C(=O)N[C@@H](CCCCN)C(=O)N[C@@H](CC(C)C)C(=O)N[C@@H](CC(C)C)C(=O)N[C@@H](CCCCN)C(=O)N[C@@H](CC(C)C)C(=O)N[C@@H](C)C(=O)N[C@@H](CCCCN)C(=O)N[C@@H](CCCCN)C(=O)N1CCC[C@H]1C(=O)N[C@@H](CC(C)C)C(=O)N[C@@H](CCCCN)C(=O)N[C@@H](CC(C)C)C(=O)N[C@@H](CC(C)C)C(=O)N[C@@H](CCCCN)C(N)=O | human red blood cells | haemolysis | – | 6 h, 37 °C, 5% haematocrit in PBS | – | MHC10 | > 160 µM |
| O=c1ccc2ccccc2o1 | NHEK | cell count | – | concentration not given, 6 h, AhR translocation panel | – | chance response | 0.03% |
| Clc1cnn(CCCCN2CCN(c3ncccn3)CC2)c1 | African green monkey cells | – | – | 5 days | – | CC50 | > 100 µM |
| O=S(=O)(O)c1nc2ccccc2s1 | rat hepatoma cells | cell confluency, IncuCyte imaging | – | 24 h, nominal concentration | – | IC10 | 597 µM |
| CCCC(=O)N[C@@H](CCCCN)C(=O)N[C@@H](CCCCN)C(=O)N[C@@H](C)C(=O)N[C@@H](CC(C)C)C(=O)N[C@@H](CCCCN)C(=O)N[C@@H](CC(C)C)C(=O)N[C@@H](C)C(=O)N[C@@H](CCCCN)C(=O)N[C@@H](CCCCN)C(=O)N1CCC[C@H]1C(=O)N[C@@H](CC(C)C)C(=O)N[C@@H](CCCCN)C(=O)N[C@@H](CC(C)C)C(=O)N[C@@H](CC(C)C)C(=O)N[C@@H](CCCCN)C(N)=O | human red blood cells | haemolysis | – | 6 h, 37 °C, 5% haematocrit in PBS | – | MHC10 | > 160 µM |
| Cc1ccc(OCCc2cc(F)cc(F)c2)c(C(=O)NCC2CC2)c1 | HepG2 | – | – | 3 (unit not given) | relative to: CC50 glucose over CC50 galactose | selectivity ratio | < 1 |

Repeated from above:
| Structure (SMILES) | target or system | test | system | setting | scale | quantity | value |
| --- | --- | --- | --- | --- | --- | --- | --- |
| CCCCc1oc2ccc(NS(C)(=O)=O)cc2c1C(=O)c1ccc(OCCCN(CCCC)CCCC)cc1 | African green monkey cells | – | – | 5 days | – | CC50 | 3.85 µM |
| c1cc2ccc3cccc4ccc(c1)c2c34 | rat hepatoma cells | cell confluency, IncuCyte imaging | – | 24 h, nominal concentration | – | IC10 | 64.4 µM |
